Measurements of several laboratories.
Lines come from different studies, so protocols differ. ± gives the spread as reported.

N=C(N)NCCC[C@@H]1NC(=O)[C@H](CCCCNC(=O)CC[C@H](NC(=O)CCOCCOCCOCCOCCNC(=O)CN2CCN(CC(=O)O)CCN(CC(=O)O)CCN(CC(=O)O)CC2)C(=O)NCCCC[C@@H]2NC(=O)[C@@H](Cc3ccccc3)NC(=O)[C@H](CC(=O)O)NC(=O)CNC(=O)[C@H](CCCNC(=N)N)NC2=O)NC(=O)[C@@H](Cc2ccccc2)NC(=O)[C@H](CC(=O)O)NC(=O)CNC1=O [indium-111 labelled]
tissue uptake (female athymic nude mice, muscle; intravenous, 3 µCi, 0.5 h, U-87 MG glioma xenograft): 1.17 ± 0.26 %ID/g

N=C(N)NCCC[C@@H]1NC(=O)[C@H](CC(=O)NC23CNCCNCC(N)(CNCCNC2)CNCCNC3)NC(=O)[C@@H](Cc2ccccc2)NC(=O)[C@H](CC(=O)O)NC(=O)CNC1=O [copper-64 labelled]
tissue uptake (Nu/Nu mouse, male, tumour-bearing, heart; intravenous, 10 µCi, 2 h): 0.37 ± 0.13 %ID/g

CC(C)C[C@H](NC(=O)[C@H](Cc1ccc(O)cc1)NC(=O)[C@@H](CCCNC(=N)N)NC(=O)[C@@H](CO)NC(=O)[C@H](Cc1ccccc1)NC(=O)[C@H](CC1CCCCC1)NC(=O)[C@H](CC(=O)O)NC(=O)CCC(C(=O)O)N1CCCN2CCN(CCCN(CC(=O)O)CC2)CC1)C(=O)N[C@@H](Cc1c[nH]c2ccccc12)C(=O)N[C@@H](CO)C(=O)O (stereo partly drawn) [copper-64 labelled]
tissue uptake (female NMRI nude mice, tumor; 1 h p.i.): 3 ± 0.9 %ID/g

N=C(N)NCCC[C@@H]1NC(=O)[C@H](CCCCNC(=O)CCOCCOCCOCCOCCNC(=O)CN2CCN(CC(=O)O)CCN(CC(=O)O)CCN(CC(=O)O)CC2)NC(=O)[C@@H](Cc2ccccc2)NC(=O)[C@H](CC(=O)O)NC(=O)CNC1=O [indium-111 labelled]
tissue uptake (female athymic nude mice, muscle; intravenous, 3 µCi, 24 h, U-87 MG glioma xenograft): 0.19 ± 0.04 %ID/g

CCCC[C@H](NC(=O)COCCOCCNC(=O)c1ccc(NN)nc1)C(=O)N[C@H]1CC(=O)NCCCC[C@@H](C(N)=O)NC(=O)[C@H](Cc2c[nH]c3ccccc23)NC(=O)[C@H](CCCNC(=N)N)NC(=O)[C@@H](Cc2ccccc2)NC(=O)[C@H](Cc2c[nH]cn2)NC1=O [technetium-99m labelled]
tissue uptake (C57 mouse, female, B16/F1 melanoma, brain; intravenous, 0.037 MBq, 2 h): 0.03 ± 0.02 %ID/g

N=C(N)NCCC[C@@H]1NC(=O)[C@H](CCCCNC(=O)CC[C@H](NC(=O)CCOCCOCCOCCOCCNC(=O)CC[C@H](NC(=O)CN2CCN(CC(=O)O)CCN(CC(=O)O)CCN(CC(=O)O)CC2)C(=O)NCCOCCOCCOCCOCCC(=O)N[C@@H](CCC(=O)NCCCC[C@@H]2NC(=O)[C@@H](Cc3ccccc3)NC(=O)[C@H](CC(=O)O)NC(=O)CNC(=O)[C@H](CCCNC(=N)N)NC2=O)C(=O)NCCCC[C@@H]2NC(=O)[C@@H](Cc3ccccc3)NC(=O)[C@H](CC(=O)O)NC(=O)CNC(=O)[C@H](CCCNC(=N)N)NC2=O)C(=O)NCCCC[C@@H]2NC(=O)[C@@H](Cc3ccccc3)NC(=O)[C@H](CC(=O)O)NC(=O)CNC(=O)[C@H](CCCNC(=N)N)NC2=O)NC(=O)[C@@H](Cc2ccccc2)NC(=O)[C@H](CC(=O)O)NC(=O)CNC1=O [indium-111 labelled]
tissue uptake (athymic nude mice, female, U-87 MG glioma xenograft, spleen; intravenous, 3 µCi, 72 h): 0.36 ± 0.02 %ID/g

CCCC[C@H](NC(=O)CCCCCCCNC(=O)c1ccc(NN)nc1)C(=O)N[C@H]1CC(=O)NCCCC[C@@H](C(N)=O)NC(=O)[C@H](Cc2c[nH]c3ccccc23)NC(=O)[C@H](CCCNC(=N)N)NC(=O)[C@@H](Cc2ccccc2)NC(=O)[C@H](Cc2c[nH]cn2)NC1=O [technetium-99m labelled]
tissue uptake (C57 mouse, B16/F1 melanoma, intestines; intravenous, 0.037 MBq, 0.5 h): 2.43 ± 0.31 %ID

CSCC[C@H](NC(=O)[C@H](CC(C)C)NC(=O)[C@H](Cc1c[nH]cn1)NC(=O)CNC(=O)[C@@H](NC(=O)[C@H](C)NC(=O)[C@H](Cc1c[nH]c2ccccc12)NC(=O)[C@H](CCC(N)=O)NC(=O)CCCCNC(=O)CSCCSCCP(CO)CO)C(C)C)C(N)=O [technetium-99m labelled]
tissue uptake (female CF-1 mouse, carcass; intravenous, 4 h): 3.7 %ID

CCCC[C@H](NC(=O)CNC(=O)CNC(=O)c1ccc(NN)nc1)C(=O)N[C@H]1CC(=O)NCCCC[C@@H](C(N)=O)NC(=O)[C@H](Cc2c[nH]c3ccccc23)NC(=O)[C@H](CCCNC(=N)N)NC(=O)[C@@H](Cc2ccccc2)NC(=O)[C@H](Cc2c[nH]cn2)NC1=O [technetium-99m labelled]
tissue uptake (C57 mouse, B16/F1 melanoma-bearing, heart; intravenous, 0.5 h): 0.84 ± 0.31 %ID/g

N=C(N)NCCC[C@@H]1NC(=O)[C@H](CCCCNC(=O)CNC(=O)CNC(=O)CNC(=O)CC[C@H](NC(=O)c2ccc(NN=Cc3ccccc3S(=O)(=O)O)nc2)C(=O)NCC(=O)NCC(=O)NCC(=O)NCCCC[C@@H]2NC(=O)[C@@H](Cc3ccccc3)NC(=O)[C@H](CC(=O)O)NC(=O)CNC(=O)[C@H](CCCNC(=N)N)NC2=O)NC(=O)[C@@H](Cc2ccccc2)NC(=O)[C@H](CC(=O)O)NC(=O)CNC1=O [technetium-99m labelled]
tissue uptake (athymic nu/nu mouse, female, U-87 MG glioma xenograft, kidney; intravenous, 30 min): 23.3 ± 2.78 %ID/g

N=C(N)NCCC[C@@H]1NC(=O)[C@H](CCCCNC(=O)CCOCCOCCOCCOCCNC(=O)CC[C@H](NC(=O)CCOCCOCCOCCOCCNC(=O)CC[C@H](NC(=O)CN2CCN(CC(=O)O)CCN(CC(=O)O)CCN(CC(=O)O)CC2)C(=O)NCCOCCOCCOCCOCCC(=O)N[C@@H](CCC(=O)NCCOCCOCCOCCOCCC(=O)NCCCC[C@@H]2NC(=O)[C@@H](Cc3ccccc3)NC(=O)[C@H](CC(=O)O)NC(=O)CNC(=O)[C@H](CCCNC(=N)N)NC2=O)C(=O)NCCOCCOCCOCCOCCC(=O)NCCCC[C@@H]2NC(=O)[C@@H](Cc3ccccc3)NC(=O)[C@H](CC(=O)O)NC(=O)CNC(=O)[C@H](CCCNC(=N)N)NC2=O)C(=O)NCCOCCOCCOCCOCCC(=O)NCCCC[C@@H]2NC(=O)[C@@H](Cc3ccccc3)NC(=O)[C@H](CC(=O)O)NC(=O)CNC(=O)[C@H](CCCNC(=N)N)NC2=O)NC(=O)[C@@H](Cc2ccccc2)NC(=O)[C@H](CC(=O)O)NC(=O)CNC1=O [indium-111 labelled]
tissue uptake (female athymic nude mice, brain; intravenous, 3 µCi, 24 h, U-87 MG glioma xenograft): 0.08 ± 0.01 %ID/g

CSCC[C@H](NC(=O)[C@H](CC(C)C)NC(=O)[C@H](Cc1c[nH]cn1)NC(=O)CNC(=O)[C@@H](NC(=O)[C@H](C)NC(=O)[C@H](Cc1c[nH]c2ccccc12)NC(=O)[C@H](CCC(N)=O)NC(=O)CCCCCNC(=O)CNC(=O)CNC(=O)CNC(=O)CSC(C)=O)C(C)C)C(N)=O [technetium-99m labelled]
tissue uptake (nude mouse, PC-3 xenograft, tumor; 30 min, together with: excess unlabelled conjugate): 0.51 ± 0.17 %ID/g

Repeated from above:
N=C(N)NCCC[C@@H]1NC(=O)[C@H](CCCCNC(=O)CCOCCOCCOCCOCCNC(=O)CN2CCN(CC(=O)O)CCN(CC(=O)O)CCN(CC(=O)O)CC2)NC(=O)[C@@H](Cc2ccccc2)NC(=O)[C@H](CC(=O)O)NC(=O)CNC1=O [indium-111 labelled]
tissue uptake (female athymic nude mice, muscle; intravenous, 3 µCi, 24 h, U-87 MG glioma xenograft): 0.19 ± 0.04 %ID/g
